# Results from different studies.
# Numbered parts are unrelated; each lists some results of a single study.

# Sample 1
# Target: Interferon regulatory factor 7, full length, phosphomimetic (IRF7, Homo sapiens, UniProt Q92985, residues 1-503, S101K/S471D/S472D/S475D/S476D/S477D/S483D/S484D/S487D)
# Method: protein-binding microarray
# Molecule type: double-stranded DNA, one strand shown
# Medium: in vitro
# Concentration: 250 nM
# Notes: 60-bp whole probe
# With: salmon DNA 0.4 mg/ml
# Baseline: random background probes
# Reading: higher = stronger binding
# All sequences stand within: GCCTAGCAC … GTCTTGATTCGCTTGACGCTGCTG
# Target sequence (chain): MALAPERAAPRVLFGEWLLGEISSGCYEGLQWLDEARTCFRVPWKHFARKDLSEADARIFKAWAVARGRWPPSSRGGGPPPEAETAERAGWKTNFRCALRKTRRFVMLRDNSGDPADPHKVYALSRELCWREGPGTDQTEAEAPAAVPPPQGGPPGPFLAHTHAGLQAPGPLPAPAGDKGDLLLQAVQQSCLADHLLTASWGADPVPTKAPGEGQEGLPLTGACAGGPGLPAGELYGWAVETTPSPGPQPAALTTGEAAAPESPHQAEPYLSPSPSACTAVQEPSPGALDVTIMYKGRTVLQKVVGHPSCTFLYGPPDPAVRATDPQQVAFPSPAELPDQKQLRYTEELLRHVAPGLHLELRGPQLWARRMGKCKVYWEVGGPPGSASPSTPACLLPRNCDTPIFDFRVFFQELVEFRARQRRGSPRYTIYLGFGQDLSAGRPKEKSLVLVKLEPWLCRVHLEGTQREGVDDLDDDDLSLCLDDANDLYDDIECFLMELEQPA
Sequence,log fluorescence [z-score]
TTAGGTTTCGGTTCCGGATAGTGCTAG,12.5
TTAGATCTGGGGTTTCGATTAGTGCTA,5.26
TTAGGTTTCGGTTCGGGTTAGTGCTAG,13
GACGGTTTCAGTCTCGGGACGTGCTAG,1.77
TCATCACTCTGTCCCTCACTGTGCTAG,0.159
TCACTTTGCCTTTTGCTACTGTGCTAG,0.973
GACTGTTTCGGTTTCGGGACGTGCTAG,10.7
TTAGGACTGAGGACTGGGTTAGTGCTA,-0.35
TCATCTCTAGAAATTCCCACTGTGCTA,0.498
GAGCCCGGGGTGTAAGCAACGTGCTAG,-0.983
CCAGCTCTGATGTTGGGAAAGTGCTAG,-0.552
GACGGTATCGGACTGGGGTCGTGCTAG,-0.192
TCATGTTTTGTTTTTCAACTGTGCTAG,2.5
TGGTAATTCTTTGCTCATTTTGTGCTA,0.52
TTAGGGCTGGGGTTTCGGTTAGTGCTA,4.24
GACGCTCTCAGTATCGAGACGTGCTAG,0.112

# Sample 2
# Target: Sal-like protein 4, full length isoform A (SALL4, Homo sapiens, UniProt Q9UJQ4, residues 1-1053)
# UniProt Q9UJQ4, sequence (whole entry, looked up): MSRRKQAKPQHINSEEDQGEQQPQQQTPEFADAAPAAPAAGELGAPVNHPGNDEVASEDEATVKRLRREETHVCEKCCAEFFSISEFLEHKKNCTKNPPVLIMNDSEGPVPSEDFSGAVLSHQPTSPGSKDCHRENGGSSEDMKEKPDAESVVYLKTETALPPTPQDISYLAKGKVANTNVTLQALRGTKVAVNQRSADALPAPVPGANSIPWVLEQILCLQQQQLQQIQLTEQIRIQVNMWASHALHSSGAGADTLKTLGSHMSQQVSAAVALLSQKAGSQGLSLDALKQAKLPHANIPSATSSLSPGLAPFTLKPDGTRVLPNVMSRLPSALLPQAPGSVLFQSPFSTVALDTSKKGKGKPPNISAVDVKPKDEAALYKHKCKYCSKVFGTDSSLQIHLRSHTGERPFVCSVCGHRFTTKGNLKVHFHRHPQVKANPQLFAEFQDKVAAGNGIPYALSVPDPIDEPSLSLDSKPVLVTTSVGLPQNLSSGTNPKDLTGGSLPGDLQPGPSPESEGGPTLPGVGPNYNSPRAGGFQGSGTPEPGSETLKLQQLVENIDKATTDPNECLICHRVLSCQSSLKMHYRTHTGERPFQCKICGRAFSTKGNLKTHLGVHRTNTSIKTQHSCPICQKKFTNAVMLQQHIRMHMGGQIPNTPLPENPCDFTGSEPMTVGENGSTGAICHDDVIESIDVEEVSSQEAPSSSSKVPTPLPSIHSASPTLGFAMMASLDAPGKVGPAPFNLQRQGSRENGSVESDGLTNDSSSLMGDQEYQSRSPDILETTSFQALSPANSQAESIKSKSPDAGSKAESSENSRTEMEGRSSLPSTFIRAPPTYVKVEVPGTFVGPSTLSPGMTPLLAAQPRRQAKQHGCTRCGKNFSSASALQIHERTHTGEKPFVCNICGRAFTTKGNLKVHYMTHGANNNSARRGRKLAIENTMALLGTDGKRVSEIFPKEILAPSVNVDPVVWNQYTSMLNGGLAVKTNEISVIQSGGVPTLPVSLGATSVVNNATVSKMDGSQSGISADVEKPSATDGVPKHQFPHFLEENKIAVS
# Method: universal PBM
# Molecule type: double-stranded DNA, one strand shown
# Medium: in vitro
# Concentration: 600 nM
# Notes: 8-mer, flanks averaged, mean of replicates
# Reading: higher = stronger binding
Sequence,E-score
ACTTCTTC,0.0599
AGTTTATC,0.195
GTAGTTCA,0.00498
CCTTCACA,0.157
AGTAACTA,0.222
CATCTGAA,0.131
AACATCGT,-0.0296
GGTGCTAC,-0.223
ATTACCGA,0.115
ACGTTTAT,0.277
AATTGGAG,0.101
CATGGCTC,-0.156
GGAGATGA,-0.0466
CAACCGTA,-0.13
GCGGGGCA,-0.283
GCTTTCAA,0.107
ATCATTCC,0.0615
TCCTCGAA,-0.0486
CATTTCCG,0.144

# Sample 3
# Target: RNA binding protein fox-1 homolog 2, RRM domain, GST-SBP tag (RBFOX2, Homo sapiens, UniProt O43251-10, residues 100-194)
# Method: RNA Bind-n-Seq
# Molecule type: RNA
# Medium: in vitro
# Concentration: 365 nM
# Notes: natural RNA segment, single round, ends assumed
# Baseline: no-protein control
# Reading: higher = stronger binding
# All sequences stand within: GGGAGUUCUACAGUCCGACGAUC … UGGAAUUCUCGGGUGCCAA
# Construct (chain): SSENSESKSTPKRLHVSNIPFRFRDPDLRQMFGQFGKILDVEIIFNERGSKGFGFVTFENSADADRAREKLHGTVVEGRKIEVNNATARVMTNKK
Sequence,RBNS enrichment (R)
GUGUGACUUGGCUAGAGUUGGGAGUUCCCCCAAAAUAAACGUGUCCCCAUUUUACCAGAACCAAACCUCAACACAGCGAAGCUGUACUGUCUUUGUGUGGCAAAGAUGUU,0.655
GAUCCUGAGCUGUGUCCUCUGUGAGGACUUCCCUCCCAGGCUUCAAUCCAGAUGUUUCGUUUCCAGGUGCAGCAGCGCUGCCUUGUGCUUUCCUGUGACUUUAAGAGCAU,0.804
GUUAGAAUAUUUUCUGGCCUUCUAUGGGGUAGCAACCCAGAAUCAAUCUGAAUUAGUCCUGUUUUGGUGGAGUUUGUACAUUUUAAAUCCUAUAACAAAAAUAAUCUAGU,0.427
UUGGCUGUGAGCCGUUGGUGAAAUCCUUUCACAUCGACACCAAAAGCUCUCCCCAGCUAGUGAAAACCUGAACAUCGUUAGAGUCACCGACUUUACAUGCUCAGAAUGCU,0.243
GCCAUGAGCAUGUACAACCUCUGGAGCUAGAAGCUCCUCAGGAAAGCCAGUUCUCCAAGUUCUUAACCUGUGGCACUGAAAGGAAUGUUGAGUUACCUCUUCAUGUUUUA,0.413
ACUGCUGUCUGAGCACUAGAAAUUUCUAAUGGAAAGAGGCCUCUGAAUGGCUAAGGGAACAUCUGGAAAGGAAGGAAAAUGAGCCCUAAAGGUUUUUUGGUUGCUUGUUU,0.479
AGAGCCAUUAUGGUGAGGUACACCUUUAAUCAUAGCACUCAGGAAGCAGGGGCAGGUGAGCCACCAUGGACUGCAUAGCAAGCCAGCCUUGAAUAUAGUGAGUCCAGUCU,0.322
GUGCCUUUUACAUGUUCUAUUUUGUAUCCUAAUGACAGAAUGAAUAAACCUCUUUAUAUUUGCACAAGAGGACUCUUGUCUGUCAGCACUUCUGAGGGUGGAGUUUGUGA,1.16
GCCACGAAGCAGCAGGAGGCGCCGCCUGGAGGGGAGAUUGACUAGCUUCAGACCCGGAGAUGUUGUUCACGCCCUUGCCCUGUGCCCACCUCUUCUCUUCCUGCCCGGCU,0.536
UUCUGUGGCACCAUUGAGUACAGGGCCCCAGAGAUUCUAGUGCGCACUGGUCACAACCGGGCAGUGGACUGGUGGAGCCUGGGAGCCCUGAUGUACGACAUGCUCACUGG,0.432
GCUUUUAUCCUGCAUGGGAUAACAUCUUUGUAAAUGUAUAAGCUUGGAAACCACCCAACAAAUAUUAGUAGCUGGAUAGCUACCUAUUUGUUGUUGAAUCCGGGUAUCCA,0.434
CUAACAUGCCCAGGUGGUGUCGGCUCAGAGGAUCCUAGCACCAUCUUAAGCAGGUGGGAGGCAGGGAAGGGUGCACCAGCGUGUCUUUCCCUGACUUUACAUGGUGUUUU,0.585

# Sample 4
# Target: Ras GTPase-activating protein-binding protein 1, full length (G3BP1, Homo sapiens, UniProt Q13283)
# UniProt Q13283, sequence (whole entry, looked up): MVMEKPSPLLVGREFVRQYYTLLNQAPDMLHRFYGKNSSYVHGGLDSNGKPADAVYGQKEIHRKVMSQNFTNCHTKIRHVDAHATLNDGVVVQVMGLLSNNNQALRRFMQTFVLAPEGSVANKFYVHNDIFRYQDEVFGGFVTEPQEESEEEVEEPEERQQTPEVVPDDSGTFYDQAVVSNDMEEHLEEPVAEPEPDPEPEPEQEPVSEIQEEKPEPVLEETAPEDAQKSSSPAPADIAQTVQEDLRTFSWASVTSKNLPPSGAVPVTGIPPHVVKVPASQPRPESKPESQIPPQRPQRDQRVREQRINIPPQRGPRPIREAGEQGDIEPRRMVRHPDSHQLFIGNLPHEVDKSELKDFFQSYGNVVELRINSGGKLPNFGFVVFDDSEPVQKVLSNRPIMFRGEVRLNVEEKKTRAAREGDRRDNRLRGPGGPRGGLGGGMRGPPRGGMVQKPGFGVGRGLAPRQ
# Method: RNA Bind-n-Seq
# Molecule type: RNA
# Medium: in vitro
# Concentration: 200 nM
# Notes: whole 134-nt RNA, ends assumed
# With: 150 mM LiCl
# Baseline: input library
# Reading: higher = stronger binding
# Each molecule: 7-deaza-guanosine replaces G
# All sequences stand within: GGGAGUUCUACAGUCCGACGAUC … UGGAAUUCUCGGGUGUCAAGG
Sequence,log2 enrichment
GUCCUGUGCUACACAUCGUAUGUACCGAAUCGGGGAAAAGGGGAAAAGGGGAAAAGGGGAAAGUAUUAUGUUACGCCGUUCGGAUCUGCA,0.142
CAAGUCCUGUGCUACACAUCGUAUGUACCGAAUCGGGAAAGGGUUUUUGGGUGGGAAAGUAUUAUGUUACGCCGUUCGGAUCUGCACUUC,-0.0166
UUUUAGGAAGCUGCAGUAAAGGAAGAUGAAGAAGAAGUUUCAGAUAAGGGCAGUGAUUCUGAAGAAGAAGAAACCAAUAGAGAUUCCCAA,-2.01
AGUCCUGUGCUACACAUCGUAUGUACCGAAUCGGAAAAAAAGGAAAGGAAAAAAAGGAAAGUAUUAUGUUACGCCGUUCGGAUCUGCACU,-1.17
CAAGUCCUGUGCUACACAUCGUAUGUACCGAAUCGGGCCCGGGGCCCGGCCCGGGAAAGUAUUAUGUUACGCCGUUCGGAUCUGCACUUC,-1.99
ACCAUGCAGGUGGGCAUCUUUGGGAAGUGGGGCAAGGGUGGGAUAGGGAGGGGGGUAACACUUUGGGAACAGGUGGUCCCAGGUCGUUUC,0.344
GUCCUGUGCUACACAUCGUAUGUACCGAAUCGGGUUUUUGGGUUUUUGGGUUUUUGGGGAAAGUAUUAUGUUACGCCGUUCGGAUCUGCA,-0.466
CCUCAAGUCCUGUGCUACACAUCGUAUGUACCGAAUCGGGGUGGGUGGGGUGGAAAGUAUUAUGUUACGCCGUUCGGAUCUGCACUUCCA,-0.863
ACCAUGCAGGUGGGCAUCUUUGGGAAGUGGGGCAAGGGGGGGAUAGGGAGGGGGGUAACACUUUGGGAACAGGUGGACCCAGGUCGUUUC,-0.0269
CAAGUCCUGUGCUACACAUCGUAUGUACCGAAUCGGAAAAAAAGGAAAAAGGUGGAAAGUAUUAUGUUACGCCGUUCGGAUCUGCACUUC,-0.91
UCCUGUGCUACACAUCGUAUGUACCGAAUCGGGGUUUUUGGGGUUUUUGGGGAAAGGGGAAAGUAUUAUGUUACGCCGUUCGGAUCUGCA,0.246

# Sample 5
# Target: Transcription factor SOX-2, HMG box (SOX2, Homo sapiens, UniProt P48431, residues 19-118)
# UniProt P48431, sequence (19-118, looked up): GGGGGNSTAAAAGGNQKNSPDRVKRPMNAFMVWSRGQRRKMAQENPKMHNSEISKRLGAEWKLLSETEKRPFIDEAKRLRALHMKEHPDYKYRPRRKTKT
# Method: protein-binding microarray
# Molecule type: double-stranded DNA, one strand shown
# Medium: in vitro
# Concentration: not given
# Notes: k-mer, scored over probes, only values ≥0.25
# Reading: higher = stronger binding
Sequence,E-score
AATGCAA,0.288
GACAATC,0.353
AATGTGC,0.265
GATTGAA,0.302
ATAAATG,0.327
AAAGGCC,0.32
TTATCAA,0.261
TATTAAA,0.263
TTAACAA,0.321
AAAGACA,0.26
CAATACA,0.398
AATTTCA,0.27
ATTATAC,0.343
TGAATCA,0.312
AGTCAAT,0.344
ACTCAAT,0.278
GAATGGA,0.299
CCTTTTC,0.332
AATTTAG,0.275
TATAAAA,0.328
ATTCAGG,0.304
AATGCGT,0.258
CAATGCC,0.275
AATTTAA,0.318
AATTGGC,0.333

# Sample 6
# Target: Histone acetyltransferase KAT6A, winged helix 1, GST fusion (KAT6A, Homo sapiens, UniProt Q92794, residues 1-85)
# Method: protein binding microarray
# Molecule type: double-stranded DNA, one strand shown
# Medium: in vitro
# Concentration: not given
# Notes: 8-mer, flanks averaged, mean of 2 arrays, mostly near background
# Baseline: not given
# Reading: higher = stronger binding
# Target sequence (chain): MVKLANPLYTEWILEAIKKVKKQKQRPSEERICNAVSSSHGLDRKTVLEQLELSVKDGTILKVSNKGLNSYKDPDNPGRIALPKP
Sequence,E-score
ATATCTTC,-0.188
ATATTGGA,-0.28
AAGTGACG,0.023
GACGGAGA,0.272
AACTAAAA,-0.147
AAAACAGT,-0.0678
ATCTCGTC,-0.127
GCTTCTAC,0.0159
CATACCAA,0.0129
ATTGCGCC,0.274
CAGAGATC,-0.257
CCAGAACA,-0.215
TTAGGCAA,-0.179
GTGATGCA,-0.146
CCTACTGA,-0.282
CGGCGGAC,0.427

# Some of these lines once more (sample 2):
Sequence,E-score
ACGTTTAT,0.277
GGAGATGA,-0.0466
ATCATTCC,0.0615
CATTTCCG,0.144
ACTTCTTC,0.0599
AACATCGT,-0.0296
